Results gathered from unrelated publications.
Numbered parts are unrelated; each lists some results of a single study.

Set 1
Cell line: HEK-293T
Read-out: pseudovirus infection
Method: FDA-approved drug library screen
Organism: VSV pseudotyped with SARS-CoV-2 spike
Concentration: 10 µM
Time: 16 h
Reference: vehicle-treated
`CO[C@H]1/C=C/O[C@@]2(C)Oc3c(C)c(O)c4c(O)c(c(/C=N/N5CCN(C)CC5)c(O)c4c3C2=O)NC(=O)/C(C)=C\C=C\[C@H](C)[C@H](O)[C@@H](C)[C@@H](O)[C@@H](C)[C@H](OC(C)=O)[C@@H]1C` has a GFP-positive cells of 87.6%.
With `CC[C@@]1(O)C(=O)OCc2c1cc1n(c2=O)Cc2cc3c(CN(C)C)c(O)ccc3nc2-1` the GFP-positive cells was 79.6%.
For `C[C@@H]1CN(c2c(F)c(N)c3c(=O)c(C(=O)O)cn(C4CC4)c3c2F)C[C@H](C)N1`, the GFP-positive cells was 86.9%.
For `C[C@]12CCC(=O)C=C1CC[C@@H]1[C@@H]2CC[C@@]2(C)[C@H]1CC[C@]2(C)O`, the GFP-positive cells was 76.3%.
`CCCCN1CCCC[C@H]1C(=O)Nc1c(C)cccc1C` gave a GFP-positive cells of 84.2%.

Set 2
Target: Replicase polyprotein 1ab, polymerase (rep, Severe acute respiratory syndrome coronavirus 2, UniProt P0DTD1)
Read-out: enzyme activity
Action: inhibitor
Concentration: 20 µM
For `NCCCC[C@H](NC(=O)[C@@H]1CCCN1C(=O)[C@@H]1CSSC[C@H](NC(=O)CNC(=O)CNC(=O)CN)C(=O)N[C@@H](Cc2ccc(O)cc2)C(=O)N[C@@H](Cc2ccccc2)C(=O)N[C@@H](CCC(N)=O)C(=O)N[C@@H](CC(N)=O)C(=O)N1)C(=O)NCC(N)=O`, the inhibition was 1.65%.
The inhibition of `NC1=NCCN1CC(=O)O` is reported as -1.41%.
With `CO[C@@H]1COCC[C@@H]1N[C@@H]1CC[C@@](C(=O)N2CCc3ncc(C(F)(F)F)cc3C2)(C(C)C)C1` the inhibition was 0.44%.
`Nc1ccn([C@@H]2CS[C@H](CO)O2)c(=O)n1` gave an inhibition of -2.58%.
`Nc1nc(CC(=O)Nc2ccc(CCNC[C@H](O)c3ccccc3)cc2)cs1` gave an inhibition of -0.45%.
`Cc1ccc(-c2ncc(Cl)cc2-c2ccc(S(C)(=O)=O)cc2)cn1` gave an inhibition of -3.64%.
`CCN1CCN(Cc2ccc(-c3cc4c(N[C@H](C)c5ccccc5)ncnc4[nH]3)cc2)CC1` has an inhibition of -0.56%.
With `COc1cccc(-c2ccc(NC(=O)C3=C(C(=O)O)CCC3)c(F)c2)c1` the inhibition was 7.81%.
The inhibition of `CN[C@@H](C)C(=O)N[C@H](C(=O)N1CCC[C@H]1C(=O)Nc1sc(-c2ncco2)nc1-c1ccccc1)C1CCCCC1` is reported as 1.58%.
With `CSCC[C@H](NC(=O)[C@H](CC(C)C)NC(=O)[C@@H](Cc1c[nH]c2ccccc12)NC(=O)[C@H](Cc1ccccc1)N(C)C(=O)[C@@H](Cc1c[nH]c2ccccc12)NC(=O)[C@@H](N)CCCN=C(N)N)C(N)=O` the inhibition was 8.67%.
`CN[C@@H]1Cc2cccc3[nH]c(=O)n(c23)C1` has an inhibition of -0.58%.
With `O=[N+]([O-])c1cccc2c(Br)[nH]nc12` the inhibition was -4.99%.
For `CCCC(C(=O)OCCN(CC)CC)(c1ccccc1)c1ccccc1`, the inhibition was -10.1%.
With `O=C(O)[C@H](O)[C@H](O)[C@@H](O)[C@H](O)[C@H](O)CO` the inhibition was -2.8%.
`CN[C@H](CC(C)C)C(=O)N[C@H]1C(=O)N[C@@H](CC(N)=O)C(=O)N[C@H]2C(=O)N[C@H]3C(=O)N[C@H](C(=O)N[C@H](C(=O)O)c4cc(O)cc(O)c4-c4cc3ccc4O)[C@H](O[C@H]3C[C@](C)(N)[C@@H](O)[C@H](C)O3)c3ccc(c(Cl)c3)Oc3cc2cc(c3O[C@@H]2O[C@H](CO)[C@@H](O)[C@H](O)[C@H]2O[C@H]2C[C@](C)(NCc3ccc(-c4ccc(Cl)cc4)cc3)[C@@H](O)[C@H](C)O2)Oc2ccc(cc2Cl)[C@H]1O` has an inhibition of 98.9%.
`CCCCC[C@H](O)/C=C/[C@H]1[C@H](O)CC(=O)[C@@H]1CCCCCCC(=O)O` has an inhibition of -3.27%.
`O=C(O)CC(O)C(=O)O` (stereo not shown) gave an inhibition of -2.64%.
With `N#Cc1cc(-c2n[nH]c(-c3ccncc3)n2)ccn1` the inhibition was -0.9%.
With `CCCCCCCC/C=C/C(=O)O` the inhibition was 2.13%.
With `CCCCCCCC/C=C\CCCCCCCC(N)=O` the inhibition was 6.11%.

Set 3
Target: Protein C-ets-1 (ETS1, Homo sapiens, UniProt P14921, residues 1-441, K379A, full length assumed)
Method: protein-binding microarray
Molecule type: double-stranded DNA, one strand shown
Medium: in vitro
Concentration: not given
Setting: k-mer, scored over probes, only values ≥0.25
Reading: higher = stronger binding
Target sequence (chain): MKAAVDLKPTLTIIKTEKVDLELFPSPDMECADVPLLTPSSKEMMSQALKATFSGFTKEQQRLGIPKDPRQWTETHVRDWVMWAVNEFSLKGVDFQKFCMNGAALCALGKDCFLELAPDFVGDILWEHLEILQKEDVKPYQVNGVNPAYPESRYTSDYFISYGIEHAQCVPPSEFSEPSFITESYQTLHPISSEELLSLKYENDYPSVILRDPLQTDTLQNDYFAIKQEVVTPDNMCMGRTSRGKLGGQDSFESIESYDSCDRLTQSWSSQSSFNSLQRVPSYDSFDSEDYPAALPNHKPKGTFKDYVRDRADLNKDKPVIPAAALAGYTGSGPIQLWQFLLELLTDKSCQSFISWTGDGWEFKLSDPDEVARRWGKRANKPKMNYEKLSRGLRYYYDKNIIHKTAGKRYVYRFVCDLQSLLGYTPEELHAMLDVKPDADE
`TGTGCTAA` gave an E-score of 0.273.
The E-score of `CGTCCGGA` is reported as 0.289.
With `AAACCGGG` the E-score was 0.327.
`CCGGTTGA` has an E-score of 0.337.

Set 4
Target: Replicase polyprotein 1ab, main protease (rep, Severe acute respiratory syndrome coronavirus 2, UniProt P0DTD1)
Read-out: enzyme activity
Action: inhibitor
Concentration: 20 µM
Setting: hit confirmation
The inhibition of `CC[C@]1(O)C[C@H]2C[N@@](CCc3c([nH]c4ccccc34)[C@@](C(=O)OC)(c3cc4c(cc3OC)N(C=O)[C@H]3[C@@](O)(C(=O)OC)[C@H](OC(C)=O)[C@]5(CC)C=CCN6CC[C@]43[C@@H]65)C2)C1` is reported as 29.2%.
`Sc1nnc(Nc2ccccc2)s1` gave an inhibition of 110%.
The inhibition of `CC1=C(/C=C/C(=C/C=C/C(C)=C/C(=O)O)c2ccc(C)cc2)C(C)(C)CCC1` is reported as 12%.

Set 5
Target: RING finger protein unkempt homolog, zinc fingers 1-6, GST-SBP tag (UNK, Homo sapiens, UniProt Q9C0B0, residues 30-357)
Method: RNA Bind-n-Seq
Molecule type: RNA
Medium: in vitro
Concentration: not given
Setting: RNA with constant flanks, human and mouse sites, ends assumed
Reference: input RNA pool
Reading: higher = stronger binding
Constant ends, left off below: GGGAGUUCUACAGUCCGACGAUC … CAACAGAGGAUUGAGCAUCA
Residues (chain): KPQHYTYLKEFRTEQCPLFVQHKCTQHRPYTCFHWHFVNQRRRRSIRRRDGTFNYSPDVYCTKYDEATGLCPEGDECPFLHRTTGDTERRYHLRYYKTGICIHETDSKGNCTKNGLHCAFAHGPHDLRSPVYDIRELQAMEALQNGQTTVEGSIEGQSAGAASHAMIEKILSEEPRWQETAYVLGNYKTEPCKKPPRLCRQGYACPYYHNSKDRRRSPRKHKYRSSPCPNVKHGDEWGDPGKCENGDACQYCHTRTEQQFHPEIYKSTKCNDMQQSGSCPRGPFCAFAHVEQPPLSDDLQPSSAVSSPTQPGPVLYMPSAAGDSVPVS
The bound/input enrichment of `UUGACUUCUUUCCAGUCCACGUGUGUAUAUAAUGAUAUCUAUAUUUUUGCCCAGGUCUGGGUAUUGCUCCUGCCCAGACCCUGACAUCCCUUUCCACUGUGUGUGUGACCAUGCUGGGGG` is reported as 0.645 ratio.
For `CCUUCGACAGCUGAGAGACAAAAAACCCUGUGCUCUCUCUCUGGCAGGAAGCCCGUGCCUCUACUACUGGAUCAAGAUUAUGUUAAUUUAAAGAACCAAAUUAUAAAGGCGGAAAGACGA`, the bound/input enrichment was 0.208 ratio.
For `GAAUUCAAAGCUGAAUGUGAGACAUUAAAGGAUGACACAGAGAAGCUUAAACAGCUUGAAACAGAGCAGACUAUCUUGCCAUCUCUUCGACCUACCAUUGACAUUAAUGUCAACAGCCAG`, the bound/input enrichment was 0.176 ratio.
`GUAUUGAACUUCACAGCCUUGCUCAUUGAGUACAGCUUUUCUCGGCAUCUGUACAGUUCCAUAGAGCAUUUGACAACUUUAUUGGCUUCCUCUGAUAUGCAAGUGGUGCUGGCAGUCCUU` has a bound/input enrichment of 0.455 ratio.
With `UGCUGGAAGCCCAUGAUAUGACAGAAGUAGGCCUCUGAAGCUAUUCUGGUGUCUCACUCUGUCCUUUCUCCUUCUGUGCUUGGAGCCAACAUCUGGAGGGGCCUCGAGGCCUGCCAAGCA` the bound/input enrichment was 0.0509 ratio.
`AUAAUAAAUUAAAUAAUUGGAUCCUAGGCAUACCAAUAAAUGUUAUUUGGGGAAAGAAGCUAGCACUAUCUCAUGCAGUGAGAAUAACGGGUUCUAGUGAAUUAUCCUAUCUACACUACC` gave a bound/input enrichment of 0.447 ratio.
The bound/input enrichment of `UUAAUAACAAGCAACUGCACAUCAAAGUCAGUUCCUGUAAGGAGACGUUCAUUUGAAUUUUUAGAUUUGCUGCUGCAAGAAUGGCAGACUCAUUCACUGGAAAGACAUGCAGCUGUUUUG` is reported as 0.23 ratio.
With `UUUUUUCCUGAUUUAGCAGGAGCCCCUUUCUAUUUCAGUUUCAUUUUCAGCAUAGUAGCCUUUCUAUACUUUUUCUAUAAGACUUGGGCAACUGAUCCAGGCUUCACUAAGGCUUCUGAA` the bound/input enrichment was 6.34 ratio.

For quick reference, copied from above (set 2):
With `COc1cccc(-c2ccc(NC(=O)C3=C(C(=O)O)CCC3)c(F)c2)c1` the inhibition was 7.81%.
The inhibition of `CN[C@@H](C)C(=O)N[C@H](C(=O)N1CCC[C@H]1C(=O)Nc1sc(-c2ncco2)nc1-c1ccccc1)C1CCCCC1` is reported as 1.58%.
`CCN1CCN(Cc2ccc(-c3cc4c(N[C@H](C)c5ccccc5)ncnc4[nH]3)cc2)CC1` has an inhibition of -0.56%.
With `O=[N+]([O-])c1cccc2c(Br)[nH]nc12` the inhibition was -4.99%.
